Published values pooled from the literature.
Each numbered part is a random draw from the data of one study; scales do not carry over between parts.

Block 1
Target: Interferon regulatory factor 7, full length, phosphomimetic (IRF7, Homo sapiens, UniProt Q92985, residues 1-503, S471D/S472D/S475D/S476D/S477D/S483D/S484D/S487D)
Chain of UniProt Q92985 (whole entry, unmodified, looked up): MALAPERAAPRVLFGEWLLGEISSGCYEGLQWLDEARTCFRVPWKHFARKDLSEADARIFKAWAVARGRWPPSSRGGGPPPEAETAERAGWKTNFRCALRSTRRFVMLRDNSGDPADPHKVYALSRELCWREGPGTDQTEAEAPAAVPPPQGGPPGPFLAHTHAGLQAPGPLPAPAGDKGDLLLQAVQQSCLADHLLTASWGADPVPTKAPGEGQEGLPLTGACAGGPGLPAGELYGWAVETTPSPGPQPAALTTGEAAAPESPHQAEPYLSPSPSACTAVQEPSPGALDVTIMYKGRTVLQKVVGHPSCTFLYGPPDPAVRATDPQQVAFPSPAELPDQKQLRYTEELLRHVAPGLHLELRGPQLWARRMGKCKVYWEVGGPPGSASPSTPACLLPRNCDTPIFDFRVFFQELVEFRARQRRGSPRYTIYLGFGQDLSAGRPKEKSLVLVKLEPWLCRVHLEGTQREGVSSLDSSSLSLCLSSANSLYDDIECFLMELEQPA
Method: protein-binding microarray
Form: double-stranded DNA, one strand shown
Sample: in vitro
Tested at: 2200 nM top
Notes: 60-bp whole probe
Added: salmon DNA 0.4 mg/ml
Relative to: random background probes
Reading: higher = stronger binding
Shared flanks, not repeated: GCCTAGCAC … GTCTTGATTCGCTTGACGCTGCTG
| Strand | fitted relative affinity [z-score] |
| --- | --- |
| AACGGTTTCGGGACTGGGGACGTGCTA | 3.85 |
| TTAGATATCGGGTATCCATTAGTGCTA | 0.184 |
| GAAAACAAAGAAAATACAAAGTGCTAG | -0.273 |
| TTAGGCCTGGACTTTCGGTTAGTGCTA | 4.61 |
| GACGGTATCTGTCTCGGGACGTGCTAG | 0.239 |
| TAGTTTTCATTTTCTGAATGTGTGCTA | 6.72 |
| TCATATATATATTATATAACTGTGCTA | 0.283 |

Block 2
Target: Histone acetyltransferase KAT6A, both winged helices, GST fusion (KAT6A, Homo sapiens, UniProt Q92794, residues 1-181)
Method: protein binding microarray
Form: double-stranded DNA, one strand shown
Sample: in vitro
Tested at: not given
Notes: 8-mer, flanks averaged, mean of 2 arrays, mostly near background
Relative to: not given
Reading: higher = stronger binding
Target sequence (chain): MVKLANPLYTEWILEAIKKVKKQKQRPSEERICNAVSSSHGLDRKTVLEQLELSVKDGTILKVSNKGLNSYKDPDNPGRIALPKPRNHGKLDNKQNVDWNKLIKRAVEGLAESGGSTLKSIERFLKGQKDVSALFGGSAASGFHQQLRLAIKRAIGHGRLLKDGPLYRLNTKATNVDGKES
| Strand | E-score |
| --- | --- |
| AGGGTAGA | -0.0762 |
| AATTGCAC | -0.223 |
| CCCGCCCA | 0.147 |
| CGACCTCC | -0.0876 |
| CAGAAGAA | -0.198 |
| CCTTGTTC | -0.0907 |
| CAGACCGC | 0.169 |
| GGAGCGGA | 0.212 |

Block 3
Target: Prothrombin, mature alpha-thrombin (F2, Homo sapiens, UniProt P00734)
Method: aptamer microarray, sandwich
Form: DNA with 2'F-ANA
Sample: in vitro
Tested at: 200 nM
Notes: whole 15-mer aptamer, many near background
Added: Cy3 exosite-II aptamer, 400 nM
Reading: higher = stronger binding
Strand: GGTTGGTGTGGTTGG
| Modification | mean fluorescence intensity |
| --- | --- |
| 2'F-ANA at 3 4 11 13 14 15 | 320 a.u. |
| 2'F-ANA at 9 10 11 14 15 | 95.6 a.u. |
| 2'F-ANA at 2 3 4 7 9 13 15 | 447 a.u. |
| 2'F-ANA at 1 2 4 6 7 8 12 13 15 | 207 a.u. |
| 2'F-ANA at 1 5 7 9 10 11 12 13 15 | 47 a.u. |
| 2'F-ANA at 2 3 4 5 6 7 8 9 13 | 63 a.u. |
| 2'F-ANA at 1 3 4 5 10 14 | 44.9 a.u. |
| 2'F-ANA at 3 8 10 14 15 | 417 a.u. |
| 2'F-ANA at 3 5 8 9 10 11 13 14 | 54.5 a.u. |

Single results of other studies
| Substance | target | test | system | conditions | how to read | quantity | value |
| --- | --- | --- | --- | --- | --- | --- | --- |
| PhoQ, residues 284 288 289 292 302 303 GASLAW | PhoP, residues 12 14 15 18 19 LYFRQ (Escherichia coli, UniProt P23836) | Sort-seq, item: YFP reporter | E. coli | PhoQ-PhoP variant library, added: 10 µM Mg2+ | relative to: high Mg2+ state, higher = stronger signaling | fold induction | 54.1 |

Some of these lines once more (block 3):
| Modification | mean fluorescence intensity |
| --- | --- |
| 2'F-ANA at 2 3 4 7 9 13 15 | 447 a.u. |
| 2'F-ANA at 1 2 4 6 7 8 12 13 15 | 207 a.u. |
| 2'F-ANA at 1 5 7 9 10 11 12 13 15 | 47 a.u. |
| 2'F-ANA at 2 3 4 5 6 7 8 9 13 | 63 a.u. |
